Measurements from different studies.
± gives the spread as reported.
Organism: Trypanosoma cruzi

CCCCCCCC[S+](C)CC(P(=O)(O)O)P(=O)(O)O (centres unmarked)  IC50 (intracellular amastigote growth; Vero; 72 h): 32 µM
C=C1C(=O)O[C@@H]2[C@H]1CC[C@H](C)[C@@]1(O)C=CC(=O)[C@@]21C  IC50 (cell growth, [3H]thymidine uptake; RA strain, epimastigotes; 72 h): 5.8 µM
CCCCCC(F)(P(=O)(O)O)P(=O)(O)O  IC50 (Vero cells, intracellular amastigotes; day 3 post-infection): > 10 µM
O=C(Cn1ccnc1[N+](=O)[O-])c1ccc(-c2ccccc2)cc1  IC50 (parasite growth; Tulahuen C4 amastigotes): 4 to 60 µM
CCC(F)(P(=O)(O)O)P(=O)(O)O  IC50 (Vero cells, intracellular amastigotes; day 3 post-infection): > 10 µM
CC[C@@]1(O)C(=O)OCc2c1cc1n(c2=O)Cc2cc3ccccc3nc2-1  IC50 (intracellular amastigote growth; 3T3 fibroblasts, Tulahuen; 48 h, re-sourced solid sample): 0.09 ± 0.02 µM
Nc1nc(N)nc(Nc2ccc([As]3SCC(CO)S3)cc2)n1 (centres unmarked)  IC50 (parasite growth, resazurin; 48 h, epimastigote): 0.01 µM
O=C(Cn1ccnc1[N+](=O)[O-])NCc1ccccc1  survival (Y, male Swiss mouse; oral, 100 mg/kg/day, 5 to 9 dpi, followed to 56 dpi): 80%
Clc1cc(Br)ccc1-c1ccc(CNCCN2CCOCC2)o1  EC50 (parasite growth; C2C12, CA-I/72; 72 h): < 1 µM
CCCCC(F)(P(=O)(O)O)P(=O)(O)O  IC50 (Vero cells, intracellular amastigotes; day 3 post-infection): > 10 µM
C=C1C(=O)O[C@@H]2C[C@@H](C)[C@@H]3C=CC(=O)[C@@]3(C)[C@@H](O)[C@H]12  IC50 (cell growth, [3H]thymidine uptake; RA strain, epimastigotes; 72 h): 1.11 µM
CCCCCCCCCCSCC(P(=O)(O)O)P(=O)(O)O  IC50 (intracellular amastigote growth; Vero; 72 h): 22.4 µM
O=P(O)(O)C(O)(Cc1cccnc1)P(=O)(O)O  IC50 (parasite growth; Vero; 72 h, intracellular, amastigote): 55 µM
CCCC(F)(P(=O)(O)O)P(=O)(O)O  IC50 (Vero cells, intracellular amastigotes; day 3 post-infection): > 10 µM
